Results of several laboratories.
Each numbered part is a random draw from the data of one study; scales do not carry over between parts. Positions count from the first letter of the parent shown.

Study 1
Target: ABI1, truncated, D143A, DHFR fusion (Arabidopsis thaliana)
Technique: DHFR PCA, deep sequencing
Sample: yeast
Notes: methotrexate growth selection, single substitutions
Added: (+)-ABA 17 µM
Baseline: wild-type fitted maximum
Direction: higher = stronger binding
Starting sequence: PYL1, truncated, DHFR fusion (Arabidopsis thaliana); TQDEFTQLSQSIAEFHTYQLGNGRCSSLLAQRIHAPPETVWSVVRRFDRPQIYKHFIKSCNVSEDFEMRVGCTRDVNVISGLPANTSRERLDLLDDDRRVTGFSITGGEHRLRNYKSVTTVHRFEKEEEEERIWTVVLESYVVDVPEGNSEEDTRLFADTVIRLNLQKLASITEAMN
`H16F` — result for “relative binding score”: -25.7%.
`R49K` — result for “relative binding score”: 88.6%.
Under “relative binding score”, `P146K` is recorded as -0.625%.
`F47Q` — result for “relative binding score”: -36.8%.
Under “relative binding score”, `Q19P` is recorded as 81%.
Under “relative binding score”, `G71T` is recorded as -3.24%.
For `T73Y`, “relative binding score” read 89.4%.
`H34N` — result for “relative binding score”: 87%.
`H55P`: “relative binding score” 102%.
`E131W` — result for “relative binding score”: 56.3%.
For `P37T`, “relative binding score” read 60.2%.
`I79C`: “relative binding score” 89.6%.
For `I172H`, “relative binding score” read 55.3%.
For `K54Q`, “relative binding score” read 0.741%.
`R45W`: “relative binding score” 8.77%.
For `S171I`, “relative binding score” read 76.8%.
`D96S` — result for “relative binding score”: 9.97%.
`E129Q`: “relative binding score” 85.9%.
`G108W`: “relative binding score” -12.4%.
For `S63V`, “relative binding score” read 76.7%.
`D97G` — result for “relative binding score”: 80%.

Study 2
Target: Prothrombin, mature alpha-thrombin (F2, Homo sapiens, UniProt P00734)
Technique: aptamer microarray, sandwich
Molecule type: DNA with 2'F-ANA
Sample: in vitro
Concentration: 200 nM
Notes: whole 15-mer aptamer, many near background
Added: Cy3 exosite-II aptamer, 400 nM
Direction: higher = stronger binding
Sequence: GGTTGGTGTGGTTGG
`2'F-ANA at 1 2 6 8 9 11 14 15`: “mean fluorescence intensity” 54.4 a.u.
`2'F-ANA at 1 2 6 12 14 15` — result for “mean fluorescence intensity”: 61.5 a.u.
Under “mean fluorescence intensity”, `2'F-ANA at 2 3 4 7 8 14 15` is recorded as 462 a.u.
Under “mean fluorescence intensity”, `2'F-ANA at 4 7 8 9 11 12 13 14` is recorded as 102 a.u.
`2'F-ANA at 2 3 4 6 7 9 11 13` — result for “mean fluorescence intensity”: 301 a.u.
`2'F-ANA at 4 6 8 9 10 14 15`: “mean fluorescence intensity” 86.1 a.u.
For `2'F-ANA at 2 3 6 7 12 13 14 15`, “mean fluorescence intensity” read 386 a.u.
Under “mean fluorescence intensity”, `2'F-ANA at 1 3 6 7 11 12 14 15` is recorded as 99 a.u.
`2'F-ANA at 3 4 7 9 10 11 12 14 15` — result for “mean fluorescence intensity”: 201 a.u.
`2'F-ANA at 4 5 6 8 9 10 11 12 13 14 15` — result for “mean fluorescence intensity”: 45.3 a.u.
Under “mean fluorescence intensity”, `2'F-ANA at 3 4 5 7 8 10 12 15` is recorded as 72.5 a.u.
`2'F-ANA at 2 4 7 9 10 14 15` — result for “mean fluorescence intensity”: 69.3 a.u.
`2'F-ANA at 1 3 5 6 7 11 13 14`: “mean fluorescence intensity” 49.3 a.u.
`2'F-ANA at 1 2 5 8 9 12 13` — result for “mean fluorescence intensity”: 86.7 a.u.
Under “mean fluorescence intensity”, `2'F-ANA at 3 4 5 7 8 9 11 12 13 14 15` is recorded as 53.6 a.u.
`2'F-ANA at 1 2 5 7 10 11 13 15` — result for “mean fluorescence intensity”: 44 a.u.
Under “mean fluorescence intensity”, `2'F-ANA at 3 4 5 6 7 8 10 12 14 15` is recorded as 52.1 a.u.
`2'F-ANA at 5 6 7 11 15` — result for “mean fluorescence intensity”: 55.5 a.u.
For `2'F-ANA at 1 2 4 5 8 9`, “mean fluorescence intensity” read 65.8 a.u.
For `2'F-ANA at 1 5 6 7 12 13`, “mean fluorescence intensity” read 82.8 a.u.
`2'F-ANA at 2 3 4 5 8 9 10 11 12 14` — result for “mean fluorescence intensity”: 49.7 a.u.
`2'F-ANA at 3 4 5 6 11 12 13 14 15` — result for “mean fluorescence intensity”: 47.8 a.u.
`2'F-ANA at 1 3 4 5 7 8 10 12 14` — result for “mean fluorescence intensity”: 78.4 a.u.
`2'F-ANA at 3 4 9 15` — result for “mean fluorescence intensity”: 661 a.u.

Study 3
Target: CCND2, cyclin fold, Cln2 fusion (human)
Technique: yeast growth competition, sequencing
Sample: yeast
Notes: weak parent motif
Baseline: not given
Direction: higher = stronger binding
Starting sequence: CDC25A docking peptide (human); PPHRRRLLFACSP
`PPVRRRLLFACSP [H3V]`: “normalised enrichment score” 0.534.
Under “normalised enrichment score”, `PPHRRQLLFACSP [R6Q]` is recorded as 0.525.
`PPHRGRLLFACSP [R5G]` — result for “normalised enrichment score”: 0.229.
`PPHRRRLLFWCSP [A10W]` — result for “normalised enrichment score”: 0.0215.
For `PPHRRRLLFACST [P13T]`, “normalised enrichment score” read 0.461.
For `PPHRRRLWFACSP [L8W]`, “normalised enrichment score” read 0.18.
`PPHRRRLLFACWP [S12W]` — result for “normalised enrichment score”: 0.153.
`PPHRRRRLFACSP [L7R]` — result for “normalised enrichment score”: -0.0754.
`PPHRRRLLFACSE [P13E]`: “normalised enrichment score” -0.0792.
For `PPHRRRLLFACSF [P13F]`, “normalised enrichment score” read -0.0466.
Under “normalised enrichment score”, `PPHRRRLLFACYP [S12Y]` is recorded as 0.106.
`PIHRRRLLFACSP [P2I]`: “normalised enrichment score” 0.0815.
`PPHQRRLLFACSP [R4Q]`: “normalised enrichment score” 0.252.
For `PPHRRRLLFHCSP [A10H]`, “normalised enrichment score” read 0.0383.
Under “normalised enrichment score”, `CPHRRRLLFACSP [P1C]` is recorded as -0.188.
`PPHKRRLLFACSP [R4K]`: “normalised enrichment score” 0.153.
`PTHRRRLLFACSP [P2T]`: “normalised enrichment score” 0.542.
`PPRRRRLLFACSP [H3R]`: “normalised enrichment score” 0.238.
`PPPRRRLLFACSP [H3P]`: “normalised enrichment score” -0.118.
Under “normalised enrichment score”, `PPHRRRLLNACSP [F9N]` is recorded as 0.185.

Study 4
Target: FOSL2, bZIP domain (human)
Technique: DHFR protein complementation
Sample: yeast
Notes: single substitutions, most at no-binding floor
Baseline: wild-type JUN-FOS pair
Direction: higher = stronger binding
Starting sequence: JUN, bZIP domain (human); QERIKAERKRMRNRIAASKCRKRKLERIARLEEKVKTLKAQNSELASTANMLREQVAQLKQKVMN; partner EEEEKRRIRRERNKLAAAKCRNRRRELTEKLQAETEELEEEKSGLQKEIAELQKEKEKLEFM
`E54P` gave a binding fitness of -1.15 natural log.
For `R30L`, the binding fitness was 0.149 natural log.
For `L52R`, the binding fitness was -0.959 natural log.
With `A49H` the binding fitness was -0.415 natural log.
With `I28R` the binding fitness was -0.0582 natural log.
`A29R` has a binding fitness of 0.000588 natural log.
For `E32T`, the binding fitness was -0.0126 natural log.
For `T48M`, the binding fitness was 0.124 natural log.
`A57H` has a binding fitness of 0.054 natural log.
With `Q55P` the binding fitness was -1.25 natural log.
The binding fitness of `A46D` is reported as -0.501 natural log.
For `N42E`, the binding fitness was -1.1 natural log.
With `S47N` the binding fitness was 0.11 natural log.
For `Q41L`, the binding fitness was -0.0484 natural log.
With `E32D` the binding fitness was -0.011 natural log.
`A46V` has a binding fitness of -0.028 natural log.
`A49M` gave a binding fitness of -0.0734 natural log.
`L38C` has a binding fitness of -0.65 natural log.
`A57N` gave a binding fitness of -0.00529 natural log.

Study 5
Target: RNA binding protein fox-1 homolog 2, RRM domain, GST-SBP tag (RBFOX2, Homo sapiens, UniProt O43251-10, residues 100-194)
Technique: RNA Bind-n-Seq
Molecule type: RNA
Sample: in vitro
Concentration: 365 nM
Notes: natural RNA segment, single round, ends assumed
Baseline: no-protein control
Direction: higher = stronger binding
Target sequence (chain): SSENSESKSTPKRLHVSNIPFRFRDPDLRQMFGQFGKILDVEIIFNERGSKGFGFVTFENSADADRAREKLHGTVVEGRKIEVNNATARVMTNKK
Under “RBNS enrichment (R)”, `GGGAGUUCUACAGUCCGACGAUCCUCUUGAACCCAGGAGGCAAAAGUUGCAAUGAGCUGAGAUCGUGCCAUUUGCACUCCAGCCUGGGCAACAAGAGCGAAAUUCCAUCUCAAAAAAAAAAGGUGGGUAAAGGUGGAAUUCUCGGGUGCCAA` is recorded as 0.678.
For `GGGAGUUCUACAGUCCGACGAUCGGCUAUUUUCUCUUCUCGCCGUAGUGCCGUUGGUUUCACAUGAUUGCACUUUUGUGGGUCGCAAGGUGAUACAUACGUGUAUUACUUGGUCACUGGAUGCAGAAGUACCCUGGAAUUCUCGGGUGCCAA`, “RBNS enrichment (R)” read 0.405.
For `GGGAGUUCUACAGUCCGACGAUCCCAUGCAUGGAAAAGUGGCCUGUUGGUUCAACGUGGUUUCCUUGUACUUGAUCCUCCUGAAAUGAGAGAUUUUCCUGAGAUGACUGAGUAUGGAGAUUACCAGGCAGAUGUGGAAUUCUCGGGUGCCAA`, “RBNS enrichment (R)” read 15.1.
For `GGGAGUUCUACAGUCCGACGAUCGUAAUCUGGUGUUGAACAACUAAGUCAGUAAUUGUCCUGUCUUUCAAACCAGUUAGCAACACAAUAUUUAUGUUUAAAUUUAUCAUUAAAGUACAACAGUCAUUUAACACUGGAAUUCUCGGGUGCCAA`, “RBNS enrichment (R)” read 0.496.
For `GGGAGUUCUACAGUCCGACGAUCUUGCCUUCCAGAAAGCCAUCUUUGGGCUACUGUAAUAUGACAAAUAAAAUCCUCACUGUGUGCAUCCUGAGUUGUGUGGUCGGUCUCUUUGUUUCUAAAUGGAGUGGGUAUGGAAUUCUCGGGUGCCAA`, “RBNS enrichment (R)” read 0.651.
`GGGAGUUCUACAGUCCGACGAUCUGAAGCAGGUCUUCCAGACCCUGCGAUCCUUUCUGUAGCAGUGAUUCUAAAGUGGCGUUUGCUGUGUGCUUGAGAGUAACACUGCACGCUGCAGGGGCUGUUGCAGCAGUUGGAAUUCUCGGGUGCCAA` — result for “RBNS enrichment (R)”: 0.728.
`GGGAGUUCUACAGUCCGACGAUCCUGAAUUCCUUGCAGAUGGUAGCAUUGUCUACCAGUUGGUUCAGUCUCCAUAGGACUUUCAUAUCAUCUGCUACAUUGAAAGAAUAAGAUAUACUGAUCCUAAAACCAAGUGGAAUUCUCGGGUGCCAA` — result for “RBNS enrichment (R)”: 0.392.
`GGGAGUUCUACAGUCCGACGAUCAUUCUAACAUUUACACUUUUGUUAUAAGCUAUUUAAAACCAGUAAGGAGACUUGAUAUUCAGAGAAUCAACAUGUUUUUUAAUGACUAACUGUAAAAGGCCCCUACACGUUGGAAUUCUCGGGUGCCAA` — result for “RBNS enrichment (R)”: 0.307.
`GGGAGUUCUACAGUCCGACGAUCGAUUUGCCAUUUUACUGAAAUGGAAAAUGAUUUUUUUUCAAAUAAAUACUUAUAUUGUUCAUGUUCCAAUUAUUCAGUUCCUUUAUGAGGGAUCGUUUCUAUUUCUGCCUUGGAAUUCUCGGGUGCCAA` — result for “RBNS enrichment (R)”: 0.589.
`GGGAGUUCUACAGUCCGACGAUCAAACACCAGACUCGCUCAGAGGUGAUGUCCAUCUUUGAGAAACAUGAAGCUUUGCUUUGUGGAUUGUAUGCCUGAUAUGAUGAAUAGUCAUGUGAUGAUACAUGGGAAGAUGGAAUUCUCGGGUGCCAA` — result for “RBNS enrichment (R)”: 0.347.
`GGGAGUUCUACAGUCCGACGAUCACCCUCUUCUCCCGGUCCCAUCUUCUGAGAGGGCUUCUCAGCCUGGAAACUAUGGAAACAGCAUCAAAGAGAAAGGAAUGUGGGGGGUUUCCGCUGCCCCCCACCCCCAGUGGAAUUCUCGGGUGCCAA`: “RBNS enrichment (R)” 0.549.
`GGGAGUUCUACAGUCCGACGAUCACAUAAUCCUUUGUAUGUGCAGUUUGUAAAGUAUCUGCAGAAUUAAAUGCUCUUAUUUACAGAUCAGAAAACUAACACCAGUGUCAGGAUCACAGUAUGGGAAUGACUGAUGGAAUUCUCGGGUGCCAA` — result for “RBNS enrichment (R)”: 0.292.
